Measured values collected from several papers.
± marks the error that the study gave.
Cell line: A549

CC[C@H](C)[C@H](NC(=O)[C@H](CCCCN)NC(=O)[C@H](CCC(=O)O)NC(=O)[C@H](CCCCN)NC(=O)[C@H](CO)NC(=O)[C@H](CCCCN)NC(=O)[C@H](CCCNC(=N)N)NC(=O)[C@H](Cc1ccccc1)NC(=O)[C@H](Cc1ccccc1)NC(=O)[C@H](CC(=O)O)NC(=O)CNC(=O)[C@H](CC(C)C)NC(=O)[C@@H](N)CC(C)C)C(=O)NCC(=O)N[C@@H](CCCCN)C(=O)N[C@@H](CCC(=O)O)C(=O)N[C@@H](Cc1ccccc1)C(=O)N[C@@H](CCCCN)C(=O)N[C@@H](CCCNC(=N)N)C(=O)N[C@H](C(=O)N[C@H](C(=O)N[C@@H](CCC(N)=O)C(=O)N[C@@H](CCCNC(=N)N)C(=O)N[C@H](C(=O)N[C@@H](CCCCN)C(=O)N[C@@H](CC(=O)O)C(=O)N[C@@H](Cc1ccccc1)C(=O)N[C@@H](CC(C)C)C(=O)N[C@@H](CCCNC(=N)N)C(=O)N[C@@H](CC(N)=O)C(=O)N[C@@H](CC(C)C)C(=O)N[C@H](C(=O)N1CCC[C@H]1C(=O)N[C@@H](CCCNC(=N)N)C(=O)N[C@H](C(=O)N[C@@H](CCC(=O)O)C(=O)N[C@@H](CO)C(=O)O)[C@@H](C)O)C(C)C)[C@@H](C)CC)C(C)C)[C@@H](C)CC — highest non-toxic concentration (LDH release; 24 h, 37 °C, 10% human AB serum): < 200 µg/mL
COc1ccc2c(O)c(C(=O)Nc3ccc(CN)cc3)ccc2c1 — CC50 (48 h): > 40 µM
Cc1ccc2ccc3ccc(C)nc3c2n1.Cc1ccc2ccc3ccc(C)nc3c2n1.Clc1ccc(-c2cc(-c3ccccn3)nn2-c2ccccc2)cc1.[Cl-].[Cl-].[Ru+2] — phototoxicity index (resazurin; 72 h, with: 450 nm light, 29.1 J/cm2; relative to: dark IC50 over light IC50): 2.1
CC(C)=CCCC(C)(O)C1CCC2(C)C1C(O)CC1C3(C)CCC(OC4OC(COC(=O)CCCCCCCCCCN5C(=O)C=CC5=O)C(O)C(OC(=O)CCCCCCCCCCN5C(=O)C=CC5=O)C4O)C(C)(C)C3CCC12C (centres unmarked) — cytotoxicity (MTT; 5 to 100 µM): not toxic
CCCCn1cc(C(=O)O)c(=O)c2cc(F)c3c(nnn3-c3ccccc3OC)c21 — IC50 (cell growth or viability, SRB): 133 µM
COc1ccc2ccc(C(=O)Nc3ccc(CN)cc3)c(O)c2c1 — CC50 (48 h): > 40 µM
CC(C)=CCc1cc(-c2coc3cc(O)c(CC=C(C)C)c(O)c3c2=O)ccc1O — viability (cell growth or viability, MTT; 50 µg/mL): 55.8%
NCc1ccc(NC(=O)c2cc3ccccc3cc2O)cc1 — CC50 (48 h): > 40 µM
CC(C)=CCc1c2c(c(O)c3c(=O)c(-c4ccc(O)cc4)coc13)CC(C(C)(C)O)O2 (centres unmarked) — viability (cell growth or viability, MTT; 12.5 µg/mL): 112%
[Cl-].[Cl-].[Ru+2].c1ccc2nc(-c3ccc4ccccc4n3)ccc2c1.c1cnc2c(c1)ccc1cccnc12.c1cnc2c(c1)ccc1cccnc12 — phototoxicity index (resazurin; 72 h, with: 450 nm light, 29.1 J/cm2; relative to: dark IC50 over light IC50): 7.2
CSCc1ccccn1.[Cl-].[Cl-].[Ru+2].c1ccc(-c2ccnc3c2ccc2c(-c4ccccc4)ccnc23)cc1.c1ccc(-c2ccnc3c2ccc2c(-c4ccccc4)ccnc23)cc1 — cellular accumulation ratio (24 h, near dark EC50; relative to: intracellular over incubation concentration): 99
CCCCn1cc(C(=O)O)c(=O)c2cc(F)c3c(nnn3-c3ccc(OC)cc3)c21 — IC50 (cell growth, SRB; 72 h): 51.4 ± 3.43 µg/mL
CC1(C)CC[C@]2(C(=O)O)CC[C@]3(C)C(=CC[C@@H]4[C@@]5(C)CC[C@H](O)[C@@](C)(C(=O)O)[C@@H]5CC[C@]43C)[C@@H]2C1 — IC50 (cell growth or viability, MTT; 72 h): 26.5 µM
CCCCn1cc(C(=O)O)c(=O)c2cc(F)c3c(nnn3-c3cccc(OC)c3)c21 — IC50 (cell growth or viability, SRB): 164 µM
Cc1ccc(NC(=O)N/N=C2\CC3(CCN(C)CC3)Oc3ccccc32)cc1 — IC50 (cell growth, MTT; 48 h): 5.13 ± 0.23 µM
COc1cc2c(cc1O)[C@]1(O)C(=O)c3c(O)cc4c(c3O[C@@H]1CO2)C=CC(C)(C)O4 — viability (cell growth or viability, MTT; 50 µg/mL): 11.4%
[Cl-].[Cl-].[Ru+2].c1ccc(-c2ccccn2)nc1.c1ccc(-c2ccccn2)nc1.c1ccc(-c2ccnc3c2ccc2c(-c4ccccc4)ccnc23)cc1 — phototoxicity index (resazurin; 72 h, with: 450 nm light, 29.1 J/cm2; relative to: dark IC50 over light IC50): 28.4
Cc1ccc(O)c(C=NNC(=N)NO)n1 — TC50 (cell growth, Coulter counter; 2 days): 401 µM
Cc1cc(N)c2cc(NC(=O)c3ccc4cc(C5CC5)ccc4c3)ccc2n1 — CC50 (cell growth or viability, MTS): 31.4 µM
CC1(C)[C@@H](O)CC[C@]2(C)[C@H]3CC=C4[C@@H]5C[C@](C)(CO)CC[C@]5(C(=O)O)CC[C@@]4(C)[C@]3(C)CC[C@@H]12 — IC50 (cell growth or viability, MTT; 72 h): > 100 µM
CCCC1OC2CC3C4CCC5=CC(=O)C=CC5(C)C4C(O)CC3(C)C2(C(=O)COC(=O)CN2CCOCC2)O1 (centres unmarked) — IC5 (MTT; 72 h): 43.3 ± 0.42 nM
CCCCn1cc(C(=O)O)c(=O)c2cc(F)c(Nc3cccc(OC)c3)c([N+](=O)[O-])c21 — IC50 (cell growth, SRB; 72 h): 34.3 ± 5.26 µg/mL
FC(F)(F)c1ccnc(-c2cc(C(F)(F)F)ccn2)c1.FC(F)(F)c1ccnc(-c2cc(C(F)(F)F)ccn2)c1.[Cl-].[Cl-].[Ru+2].c1cnc2c(c1)c1nc[nH]c1c1cccnc12 — photocytotoxicity (resazurin; concentration not given, normoxia, visible light): inactive
COc1ccc(-c2coc3c(CC=C(C)C)c(O)c(CC=C(C)C)c(O)c3c2=O)cc1O — viability (cell growth or viability, MTT; 50 µg/mL): 27.1%
N=C(NO)NN=Cc1nccc2ccccc12 — cytotoxic concentration (morphology): > 50 µM
CCCCn1cc(C(=O)O)c(=O)c2cc(F)c(Nc3cc(OC)c(OC)c(OC)c3)c([N+](=O)[O-])c21 — IC50 (cell growth, SRB; 72 h): 22.1 ± 3.24 µg/mL

Excerpt of the above:
COc1ccc(-c2coc3c(CC=C(C)C)c(O)c(CC=C(C)C)c(O)c3c2=O)cc1O — viability (cell growth or viability, MTT; 50 µg/mL): 27.1%
CCCC1OC2CC3C4CCC5=CC(=O)C=CC5(C)C4C(O)CC3(C)C2(C(=O)COC(=O)CN2CCOCC2)O1 (centres unmarked) — IC5 (MTT; 72 h): 43.3 ± 0.42 nM
